Results of several laboratories.
A part holds a random share of what one study measured.

Sample 1
Target: Ras GTPase-activating protein-binding protein 1, full length (G3BP1, Homo sapiens, UniProt Q13283)
Sequence of UniProt Q13283 (whole entry, looked up): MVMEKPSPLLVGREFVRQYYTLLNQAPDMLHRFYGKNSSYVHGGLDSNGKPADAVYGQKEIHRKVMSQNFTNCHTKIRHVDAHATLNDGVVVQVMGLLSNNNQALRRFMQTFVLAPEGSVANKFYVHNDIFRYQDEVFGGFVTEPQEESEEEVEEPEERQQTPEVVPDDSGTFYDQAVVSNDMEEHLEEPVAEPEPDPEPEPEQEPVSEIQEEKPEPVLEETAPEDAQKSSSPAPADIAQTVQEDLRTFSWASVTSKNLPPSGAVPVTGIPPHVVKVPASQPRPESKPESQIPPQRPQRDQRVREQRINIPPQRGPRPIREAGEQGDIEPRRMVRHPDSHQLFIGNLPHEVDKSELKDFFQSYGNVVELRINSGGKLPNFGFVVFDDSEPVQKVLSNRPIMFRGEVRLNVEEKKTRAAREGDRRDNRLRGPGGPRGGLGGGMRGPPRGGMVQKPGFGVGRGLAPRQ
Method: RNA Bind-n-Seq
Molecule type: RNA
Medium: in vitro
Concentration: 200 nM
Notes: whole 134-nt RNA, ends assumed
Added: 150 mM LiCl
Reference: input library
Direction: higher = stronger binding
Quantity: log2 enrichment
Library: 7-deaza-guanosine replaces G
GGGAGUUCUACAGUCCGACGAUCUGGGAGGUGGAUUUUGUUUAUUUUUUUAGCUCAUUUCCAGGGGUGGGAAUUUUUUUUUAAUAUGUGUCAUGAAUAAAGUUGUUAUUGAAAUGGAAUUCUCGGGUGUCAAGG: -0.238
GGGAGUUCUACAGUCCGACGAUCAGUCCUGUGCUACACAUCGUAUGUACCGAAUCGGGUUUUGGGGUUUUGGGUUUUGGGGAAAGUAUUAUGUUACGCCGUUCGGAUCUGCACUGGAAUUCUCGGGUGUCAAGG: 0.581
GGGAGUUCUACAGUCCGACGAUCUAGCCCUGGUGGCAUGCGGGGAGGAAGAGGUGGCCUCAUGGAUCGUGGUGGUCCCGGUGGAAUGUUCAGAGGUGGCCGUGGUGGAGACAGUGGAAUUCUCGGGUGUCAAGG: 0.701
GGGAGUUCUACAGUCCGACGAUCUCCUGUGCUACACAUCGUAUGUACCGAAUCGGAAAAAAGGAAAAAAGGGGAAAAAAGGGGAAAGUAUUAUGUUACGCCGUUCGGAUCUGCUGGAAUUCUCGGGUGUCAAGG: -0.578
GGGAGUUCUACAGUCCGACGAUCUAACUUUAGAGGAGGAUCUGAUGGAUAUGGCAGUGGACGUGGAUUUGGGGAUGGCUAUAAUGGGUAUGGAGGAGGACCUGAAGGUGGCAAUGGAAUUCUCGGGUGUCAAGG: -0.256
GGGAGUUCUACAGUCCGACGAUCUCCUGUGCUACACAUCGUAUGUACCGAAUCGGAAAAAAGGGAAAAAAGGGGAAAAAAGGGAAAGUAUUAUGUUACGCCGUUCGGAUCUGCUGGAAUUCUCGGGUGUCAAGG: -0.511
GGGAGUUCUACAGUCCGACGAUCAAGUCCUGUGCUACACAUCGUAUGUACCGAAUCGGGGAAAAGGGAAAAGGAAAAGGAAAGUAUUAUGUUACGCCGUUCGGAUCUGCACUUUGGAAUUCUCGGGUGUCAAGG: -0.253
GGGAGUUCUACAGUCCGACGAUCAGUCCUGUGCUACACAUCGUAUGUACCGAAUCGGGCCCCGGGGCCCCGGGCCCCGGGAAAGUAUUAUGUUACGCCGUUCGGAUCUGCACUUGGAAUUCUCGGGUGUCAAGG: -2.07

Sample 2
Target: Interferon regulatory factor 5, full length, phosphomimetic (IRF5, Homo sapiens, UniProt Q13568-2, residues 1-514, K96S/S451D/S453D/S456D/S462D)
Method: protein-binding microarray
Molecule type: double-stranded DNA, one strand shown
Medium: in vitro
Concentration: 250 nM
Notes: 60-bp whole probe
Added: salmon DNA 0.4 mg/ml
Reference: random background probes
Direction: higher = stronger binding
Quantity: log fluorescence
All sequences stand within: GCCTAGCAC … GTCTTGATTCGCTTGACGCTGCTG
CACGGACTGGGTTTCGGGACGTGCTAG: 2.34 z-score
TTAGGTATCGACTTTTGGTTAGTGCTA: 4.05 z-score
TAGTTTTACTTTCTATGTCTGTGCTAG: 5.55 z-score
TTAGGACTGGCGTATCGGTTAGTGCTA: 1.91 z-score
TTAGATATTAGTTTCGATTAGTGCTAG: 10.1 z-score
TCAGTTTTCTTTTCCATACTGTGCTAG: 2.06 z-score
AAAACACTAATTTTCATTTTGTGCTAG: 2.25 z-score
TTAGGACTGCGGTTTCGGTTAGTGCTA: 7.4 z-score
TCAAAACTAAGTTTATTACTGTGCTAG: 0.677 z-score
TCAAATTTCTTCCTCCCACTGTGCTAG: 0.652 z-score
GGGGATAAACTTAATGGATGGTGCTAG: -0.342 z-score
GACGGTCTCCTTCTCCTGCCGTGCTAG: -0.352 z-score
TTTGGTATCGGACTGGGTTAGTGCTAG: 3.2 z-score
GACGGTATCGGCACTGGGGACGTGCTA: 1.29 z-score
TGGGGCTGTATCATCTGAAGGTGCTAG: 0.0527 z-score
TTAGGTATCCTGTTCCTTTAGTGCTAG: -0.00692 z-score
GACGGTCTCCTTTTCCGGACGTGCTAG: 0.138 z-score
TTAGGTCTCCTACTACTTTAGTGCTAG: 0.0441 z-score

Sample 3
Target: RING finger protein unkempt homolog, zinc fingers 1-6, SBP tag (UNK, Homo sapiens, UniProt Q9C0B0, residues 30-357)
Sequence of UniProt Q9C0B0 (30-357, looked up): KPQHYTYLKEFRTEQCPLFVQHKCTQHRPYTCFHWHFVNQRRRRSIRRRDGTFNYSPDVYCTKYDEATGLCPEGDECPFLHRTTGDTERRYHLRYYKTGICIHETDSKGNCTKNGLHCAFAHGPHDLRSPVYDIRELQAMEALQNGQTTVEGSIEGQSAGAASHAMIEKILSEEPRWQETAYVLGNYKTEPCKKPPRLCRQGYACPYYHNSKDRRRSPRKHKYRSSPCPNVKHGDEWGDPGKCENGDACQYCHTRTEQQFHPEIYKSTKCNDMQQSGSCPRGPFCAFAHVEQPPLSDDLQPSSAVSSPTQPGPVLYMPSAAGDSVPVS
Method: RNA Bind-n-Seq
Molecule type: RNA
Medium: in vitro
Concentration: 100 nM
Notes: RNA with constant flanks, vertebrate orthologous sites, ends assumed
Reference: input RNA pool
Direction: higher = stronger binding
Quantity: bound/input enrichment
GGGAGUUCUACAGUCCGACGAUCCCGAAAGGCCAAAUUCCCUCCUCCCUUCUACUGCUUCUACCAACUGGAAGCACAGAAAACUAGAAUUACAUUUAUUUUGUUUUUUAAAAAAUAUACGUUGAUUUCUUGUAACAUUCAGUACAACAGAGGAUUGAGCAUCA: 0.859 ratio
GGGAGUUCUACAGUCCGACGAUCAACUUGUGUGAAACAUGUCUAUCCAGAGAAGUAGCAUUCUGUAAAUAUUAUCAAGUAAUUUAGUAUUUUUAGGUAUUAAAUUACAUAUCAAGCAUUUAAAGUGAAUUUGAGAUUAAAAGUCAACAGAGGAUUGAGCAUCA: 0.386 ratio
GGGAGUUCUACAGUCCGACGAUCUUCAGGCACAACUGACUGGCUCACAACAUUCCUUACAUAGUUUUCUAUCAAAUACAAGUGUAGCCAAUUUUCAGGAAACAACCAGGCAGUCACCUUUAUCCUGCAGUCCUAUUGGAGAUUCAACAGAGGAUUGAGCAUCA: 1.15 ratio
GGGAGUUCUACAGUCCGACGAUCCAUGACCUUGUUACUGUGAUAUUUUAAAUAUCCACAGUACUCACUUUUUCCAAAUGAUCCUAGUAAUUGCCUAGAAAUAUCUUUCUCUUACCUGUUAUUUAUCAAUUUUUCCCAGUAUUUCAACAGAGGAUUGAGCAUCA: 1.52 ratio
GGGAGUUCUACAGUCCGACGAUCCAGCUGAUUCACUUAUUGGGAGAGCUGCACAUAUAGCUGUUCUUGAUUCAGAAAUAUUUUUAGAGAAAUUCUUUCUUGUUGCUGCCCUAAAAUAUUUUCAGUAGGAUAAAAACAUUGUUACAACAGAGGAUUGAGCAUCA: 0.574 ratio
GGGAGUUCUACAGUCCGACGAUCAGGAACAGCAUUGGCUGUUCAAGUCUUGAGGAGAUGAGCUUUUUGCUUUUCGUAUUUAAAUAGGAUAAUUUUAUAUGAUGGGUGCUUUUGAGUGUGAUUGCAGCAGACUCUCCAUUUCUGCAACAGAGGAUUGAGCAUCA: 0.67 ratio
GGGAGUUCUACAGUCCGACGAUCAACCCCGAUUUUAGAUGUGAUACCUAGGCUUUCAUUCCAGUUUGUUUUUGUCUUCUUGUUUAGAUACCAAUCUUUUAAAUUCUUGCAUUUUAGUAAGAAAGCUACCUUUUUAUGGAUGUUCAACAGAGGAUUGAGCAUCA: 1.3 ratio
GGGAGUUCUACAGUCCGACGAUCCAUGAUCUUGUUACUGUGAUAUUUUAAAUAUCCACAGUACUCACUUUUUCCAAAUGAUUCUAGUAAUUGCCUAGAAAUAUCUUUCUCUUACCUGUUAUUUAUCAAUUUUUCCCAGUAUUUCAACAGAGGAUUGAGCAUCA: 1.22 ratio

Sample 4
Target: RNA binding protein fox-1 homolog 2, RRM domain, GST-SBP tag (RBFOX2, Homo sapiens, UniProt O43251-10, residues 100-194)
Method: RNA Bind-n-Seq
Molecule type: RNA
Medium: in vitro
Concentration: 365 nM
Notes: natural RNA segment, single round, ends assumed
Reference: no-protein control
Direction: higher = stronger binding
Quantity: RBNS enrichment (R)
Residues (chain): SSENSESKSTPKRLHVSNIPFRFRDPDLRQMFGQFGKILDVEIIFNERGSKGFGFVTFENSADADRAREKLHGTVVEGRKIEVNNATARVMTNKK
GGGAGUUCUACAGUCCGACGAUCAGCACGUAGAACUCCCUGCAUAAGCCAAGCCACCAGGCUCCUAUGCCUCUCUUAGUCUUCCCCCUAGAGCUAGGCGCCUACCAGGUGUAUAUAUGUAGCAUACUUUGGGGUGGAAUUCUCGGGUGCCAA: 0.252
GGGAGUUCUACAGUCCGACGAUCUGCACCAGCAUCAAACAUUGUGUGUGUGGAAGGGAAGAAGCCUGUCCAUUCUAAACGCAGUUGCCAGUCUCAUCACUUCAGGUCCUUACGGGCAGGCUCUAGCAACUUUCUGGAAUUCUCGGGUGCCAA: 0.627
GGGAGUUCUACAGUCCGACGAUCUCUGAAGGCAAGACUGGGAUUGGAUCACUUCUUAAACUUCCAGUUAAGAAUCUAGGUCCGCCCUCAAGCCCAUACUGACCAUGCCUCAUCCAGAGCUCCUCUGAAGCCAGUGGAAUUCUCGGGUGCCAA: 0.242
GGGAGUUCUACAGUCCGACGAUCUGGAAAGCAUGGGCCAUUGUCACCCACACGGGGCCAGGCCAGGGCUAGAGGGGUGUGUGGUAGGUCGAUAAGACUGUGCCAGUGCCUGCGGAACCAACACACCCUGCUGCUGGAAUUCUCGGGUGCCAA: 16.5
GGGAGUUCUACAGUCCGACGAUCUAUAAAGAUGAAAUAUGAACUAUCUCAUUAGAAGUCAUAGUUGACCACAGACAUGUUAUUCUUCUGAAAGAGCCACAUUUUGGUUUUAUUUCUUGUCACAUGAUUUCUUUUGGAAUUCUCGGGUGCCAA: 0.393
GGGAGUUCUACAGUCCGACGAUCCAUUCAUUUCUUUUACCUAUAGUGAAAUUAUUGAAUAGUAGUUUUUCUGAACUGUUGGAUUCUAGGCAUUCCUGAGAAAUUGAAAGUGGCUACCUUUCAUGUCAAAAUGUUGGAAUUCUCGGGUGCCAA: 0.294
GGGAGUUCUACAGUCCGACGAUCUGGACAUGAUUUGAGAUGUAGAAGCCAUUUUUUAUUAAAUAAAAUGCUUAUUUUAGGCUCCGUCCCCAUUGUGGCUCUGGUCUCGAGGCCAGUGCUUGAGUGUGCUCUGAUGGAAUUCUCGGGUGCCAA: 0.752
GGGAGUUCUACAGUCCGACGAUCCAAUUUCUGUCUUUUGUAAGACUGUGGGCUUUAGGCUUCUCUUGGUUUGUUUUGUGCAUUAAGGGACAUAACUUGGGACUCAAAGGGAUUGUUUCGCUGACCCCGCUCUUUGGAAUUCUCGGGUGCCAA: 1.26
